Experimental data from different studies.
Compare with care: the assays were run in different laboratories.
CTSL: Procathepsin L (CTSL, Homo sapiens, UniProt P07711)
UniProt P07711, sequence (whole entry, looked up): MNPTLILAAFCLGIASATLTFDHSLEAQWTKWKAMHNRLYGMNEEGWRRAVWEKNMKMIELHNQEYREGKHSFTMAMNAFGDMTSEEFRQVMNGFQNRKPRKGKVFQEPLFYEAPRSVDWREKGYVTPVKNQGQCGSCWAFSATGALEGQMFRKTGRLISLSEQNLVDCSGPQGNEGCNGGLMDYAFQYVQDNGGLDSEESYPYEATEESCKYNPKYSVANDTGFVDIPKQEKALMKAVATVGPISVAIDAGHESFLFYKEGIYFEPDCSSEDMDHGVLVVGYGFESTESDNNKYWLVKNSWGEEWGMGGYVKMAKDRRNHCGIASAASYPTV
DRD3: D(3) dopamine receptor (DRD3, Homo sapiens, UniProt P35462)
UniProt P35462, sequence (whole entry, looked up): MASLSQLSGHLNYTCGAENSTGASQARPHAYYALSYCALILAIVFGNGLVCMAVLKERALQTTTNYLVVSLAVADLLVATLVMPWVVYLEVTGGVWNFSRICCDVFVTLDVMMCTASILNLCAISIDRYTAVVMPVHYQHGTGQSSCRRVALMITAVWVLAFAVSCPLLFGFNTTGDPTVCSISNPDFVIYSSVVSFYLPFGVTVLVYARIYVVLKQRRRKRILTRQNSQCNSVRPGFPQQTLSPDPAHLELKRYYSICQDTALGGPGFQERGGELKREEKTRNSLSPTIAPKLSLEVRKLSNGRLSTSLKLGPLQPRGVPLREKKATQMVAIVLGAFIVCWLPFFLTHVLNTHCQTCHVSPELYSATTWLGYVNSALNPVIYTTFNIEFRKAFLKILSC
KIT D816V: Mast/stem cell growth factor receptor Kit (KIT, Homo sapiens, UniProt P10721, D816V)
UniProt P10721, sequence (whole entry, unmodified, looked up): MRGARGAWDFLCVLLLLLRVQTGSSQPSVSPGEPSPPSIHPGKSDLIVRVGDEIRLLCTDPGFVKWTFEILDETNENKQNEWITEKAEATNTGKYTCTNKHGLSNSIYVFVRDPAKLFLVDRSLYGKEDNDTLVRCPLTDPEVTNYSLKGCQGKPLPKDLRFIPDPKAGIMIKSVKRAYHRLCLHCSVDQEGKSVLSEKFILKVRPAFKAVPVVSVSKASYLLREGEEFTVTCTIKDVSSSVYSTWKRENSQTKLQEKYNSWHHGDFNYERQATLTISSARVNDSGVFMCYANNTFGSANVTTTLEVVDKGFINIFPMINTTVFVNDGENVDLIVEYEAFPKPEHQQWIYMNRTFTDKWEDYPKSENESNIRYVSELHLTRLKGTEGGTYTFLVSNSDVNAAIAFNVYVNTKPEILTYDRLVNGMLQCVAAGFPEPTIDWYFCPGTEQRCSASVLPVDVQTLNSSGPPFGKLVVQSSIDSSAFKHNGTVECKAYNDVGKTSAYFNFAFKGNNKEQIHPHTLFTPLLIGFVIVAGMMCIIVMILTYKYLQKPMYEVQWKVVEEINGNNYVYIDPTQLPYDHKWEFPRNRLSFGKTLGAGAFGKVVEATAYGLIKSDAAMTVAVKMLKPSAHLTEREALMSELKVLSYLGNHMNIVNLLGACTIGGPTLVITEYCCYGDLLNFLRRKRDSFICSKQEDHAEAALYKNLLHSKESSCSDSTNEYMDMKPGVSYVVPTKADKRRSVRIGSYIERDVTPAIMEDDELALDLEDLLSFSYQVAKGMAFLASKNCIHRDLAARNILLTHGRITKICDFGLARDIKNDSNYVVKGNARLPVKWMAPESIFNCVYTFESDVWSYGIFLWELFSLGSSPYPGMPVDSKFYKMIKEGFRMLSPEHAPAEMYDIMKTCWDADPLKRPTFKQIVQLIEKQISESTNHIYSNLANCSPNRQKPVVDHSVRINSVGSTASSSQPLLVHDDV
UniProt P49841, sequence (whole entry, looked up): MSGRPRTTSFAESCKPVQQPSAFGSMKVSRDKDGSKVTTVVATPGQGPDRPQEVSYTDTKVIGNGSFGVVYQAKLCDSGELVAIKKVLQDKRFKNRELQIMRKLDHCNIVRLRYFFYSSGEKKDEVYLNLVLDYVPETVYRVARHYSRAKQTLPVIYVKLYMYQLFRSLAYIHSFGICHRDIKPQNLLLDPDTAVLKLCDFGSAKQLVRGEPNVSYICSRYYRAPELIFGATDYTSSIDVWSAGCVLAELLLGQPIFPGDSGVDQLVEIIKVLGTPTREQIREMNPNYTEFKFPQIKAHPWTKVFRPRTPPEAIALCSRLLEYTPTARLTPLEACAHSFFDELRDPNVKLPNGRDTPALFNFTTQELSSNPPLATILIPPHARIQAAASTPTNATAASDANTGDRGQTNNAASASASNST
UniProt Q9H8M2, sequence (whole entry, unmodified, looked up): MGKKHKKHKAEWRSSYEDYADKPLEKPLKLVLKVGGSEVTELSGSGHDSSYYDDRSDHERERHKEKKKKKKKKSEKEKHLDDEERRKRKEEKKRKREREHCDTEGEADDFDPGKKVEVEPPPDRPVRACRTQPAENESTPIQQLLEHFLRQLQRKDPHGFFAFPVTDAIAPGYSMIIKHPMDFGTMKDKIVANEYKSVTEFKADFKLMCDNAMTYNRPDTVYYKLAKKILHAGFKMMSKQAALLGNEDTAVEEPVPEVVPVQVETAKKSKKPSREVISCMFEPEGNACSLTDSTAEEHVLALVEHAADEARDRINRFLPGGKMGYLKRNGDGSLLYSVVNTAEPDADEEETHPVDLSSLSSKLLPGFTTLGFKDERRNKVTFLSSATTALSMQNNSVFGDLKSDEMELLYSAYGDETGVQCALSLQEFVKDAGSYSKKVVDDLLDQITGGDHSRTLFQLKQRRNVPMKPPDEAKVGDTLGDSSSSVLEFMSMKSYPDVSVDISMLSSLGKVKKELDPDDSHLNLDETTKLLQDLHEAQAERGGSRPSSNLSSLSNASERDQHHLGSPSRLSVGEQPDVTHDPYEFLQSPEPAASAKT
UniProt P42680, sequence (whole entry, looked up): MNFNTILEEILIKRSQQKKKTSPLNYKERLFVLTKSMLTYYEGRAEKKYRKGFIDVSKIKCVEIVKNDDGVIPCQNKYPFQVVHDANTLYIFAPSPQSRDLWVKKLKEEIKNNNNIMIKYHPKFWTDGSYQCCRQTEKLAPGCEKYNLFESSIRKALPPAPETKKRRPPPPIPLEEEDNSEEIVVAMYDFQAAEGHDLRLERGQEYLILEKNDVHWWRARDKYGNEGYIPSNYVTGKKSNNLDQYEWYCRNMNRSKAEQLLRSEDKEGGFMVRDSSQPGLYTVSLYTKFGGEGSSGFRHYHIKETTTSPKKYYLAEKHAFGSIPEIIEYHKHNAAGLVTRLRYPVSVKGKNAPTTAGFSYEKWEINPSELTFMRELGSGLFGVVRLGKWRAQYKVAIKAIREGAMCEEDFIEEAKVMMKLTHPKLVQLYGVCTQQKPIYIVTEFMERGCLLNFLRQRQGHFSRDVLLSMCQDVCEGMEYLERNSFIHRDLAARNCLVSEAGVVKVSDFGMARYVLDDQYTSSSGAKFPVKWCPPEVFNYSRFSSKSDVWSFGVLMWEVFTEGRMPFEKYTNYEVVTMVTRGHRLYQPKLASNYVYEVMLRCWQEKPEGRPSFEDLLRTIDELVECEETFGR
UniProt O43683, sequence (whole entry, looked up): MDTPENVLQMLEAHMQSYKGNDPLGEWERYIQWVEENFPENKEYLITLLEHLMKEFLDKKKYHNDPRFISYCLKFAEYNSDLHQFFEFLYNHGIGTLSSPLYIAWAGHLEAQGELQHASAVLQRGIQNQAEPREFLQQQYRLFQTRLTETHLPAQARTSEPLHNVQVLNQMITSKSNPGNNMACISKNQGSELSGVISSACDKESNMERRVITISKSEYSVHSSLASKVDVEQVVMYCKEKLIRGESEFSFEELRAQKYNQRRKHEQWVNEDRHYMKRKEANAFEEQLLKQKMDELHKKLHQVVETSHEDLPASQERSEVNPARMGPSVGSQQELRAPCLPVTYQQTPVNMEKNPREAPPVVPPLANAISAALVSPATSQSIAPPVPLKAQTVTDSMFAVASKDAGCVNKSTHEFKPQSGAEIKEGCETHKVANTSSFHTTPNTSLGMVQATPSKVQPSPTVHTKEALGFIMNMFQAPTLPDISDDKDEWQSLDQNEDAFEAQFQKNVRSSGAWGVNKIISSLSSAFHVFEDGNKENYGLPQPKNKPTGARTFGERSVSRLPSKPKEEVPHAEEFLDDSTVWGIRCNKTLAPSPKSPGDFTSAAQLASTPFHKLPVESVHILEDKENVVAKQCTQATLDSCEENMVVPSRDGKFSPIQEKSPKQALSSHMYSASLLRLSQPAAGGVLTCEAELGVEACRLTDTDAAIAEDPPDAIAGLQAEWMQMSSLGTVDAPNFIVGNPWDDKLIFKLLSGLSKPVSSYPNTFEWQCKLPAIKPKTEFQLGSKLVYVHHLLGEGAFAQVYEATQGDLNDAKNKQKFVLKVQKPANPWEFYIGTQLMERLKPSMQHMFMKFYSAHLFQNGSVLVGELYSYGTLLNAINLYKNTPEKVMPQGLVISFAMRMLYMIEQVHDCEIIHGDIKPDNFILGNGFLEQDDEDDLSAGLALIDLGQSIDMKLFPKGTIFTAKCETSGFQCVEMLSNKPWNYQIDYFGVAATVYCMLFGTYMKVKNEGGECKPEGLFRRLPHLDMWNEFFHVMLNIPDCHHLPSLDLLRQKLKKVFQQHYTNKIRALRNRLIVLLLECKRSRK
UniProt Q00535, sequence (whole entry, looked up): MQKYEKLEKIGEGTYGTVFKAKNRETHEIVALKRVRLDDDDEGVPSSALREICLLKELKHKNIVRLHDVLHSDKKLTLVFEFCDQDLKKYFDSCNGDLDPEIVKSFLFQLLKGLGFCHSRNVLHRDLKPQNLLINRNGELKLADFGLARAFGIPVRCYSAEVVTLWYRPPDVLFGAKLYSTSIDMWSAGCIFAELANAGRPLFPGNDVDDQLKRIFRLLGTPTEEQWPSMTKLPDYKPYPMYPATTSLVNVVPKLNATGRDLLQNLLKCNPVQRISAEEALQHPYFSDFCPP
UniProt P61075, sequence (whole entry, looked up): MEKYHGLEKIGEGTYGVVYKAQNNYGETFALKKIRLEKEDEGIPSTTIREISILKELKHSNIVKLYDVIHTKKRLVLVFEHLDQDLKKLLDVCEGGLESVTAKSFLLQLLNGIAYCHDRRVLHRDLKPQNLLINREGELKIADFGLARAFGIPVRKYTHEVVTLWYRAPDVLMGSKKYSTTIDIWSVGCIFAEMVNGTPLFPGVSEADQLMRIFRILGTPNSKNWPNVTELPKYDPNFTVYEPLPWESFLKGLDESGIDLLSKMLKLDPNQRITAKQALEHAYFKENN

SMILES	tested on	test	test system	conditions	quantity	value
CN(O)N=Nc1ccc(S(=O)(=O)Nc2nccs2)cc1	–	ABTS scavenging	–	60 µg/mL	inhibition	55%
CC(=O)c1cc(-c2ccccc2Cl)c2ccccn12	Bromodomain-containing protein 9 (BRD9, Homo sapiens, UniProt Q9H8M2)	thermal stability, DSF	–	200 µM	ΔTm	2.5 °C
COc1c(/C=C/C(=O)c2ccc(O)c(CC=C(C)C)c2)ccc(O)c1O	CTSL	enzyme activity, inhibitor	–	100 µM	remaining activity	0.926%
CCCCC(=O)Nc1ccc(-c2ccc3ncn(CCC)c(=O)c3c2)cn1	Tyrosine-protein kinase Tec (TEC, Homo sapiens, UniProt P42680)	binding, competition with immobilised ligand	–	0.5 µM	remaining binding	100%
C[C@@H]1CCN(c2nccc(-c3cnn4ncccc34)n2)C1	Cyclin-dependent kinase 2 homolog (CRK2, Plasmodium falciparum, UniProt P61075)	cell-free assay	–	1 µM	remaining signal	84%
CNc1ncc2c(/C=C/C(=O)N3CCC(OC)CC3)nn(Cc3cccc(C(F)(F)F)c3)c2n1	Serine/threonine-protein kinase WNK3 (WNK3, Homo sapiens, UniProt Q9BYP7)	enzyme activity, inhibitor, radiometric	–	1 µM	remaining activity	114%
COc1cc(O)cc(O)c1C(=O)/C=C/c1ccc(O)cc1	CTSL	enzyme activity, inhibitor	–	100 µM	remaining activity	3.26%
Cc1[nH]c(C)c(S(N)(=O)=Nc2ccc(C(F)(F)F)c(Cl)c2)c1C(=O)N1CCC(F)(F)C1 (centres unmarked)	DRD3	β-arrestin recruitment, agonist	–	90 min	Emax	95%
CCN(O)N=Nc1ccc(S(=O)(=O)Nc2cc(C)on2)cc1	–	ABTS scavenging	–	60 µg/mL	inhibition	11.4%
C1=C/COCc2cc(ccc2OCCN2CCCC2)Nc2nccc(n2)-c2cccc(c2)COC/1	KIT D816V	binding	–	0.1 µM	remaining binding	61%
O=C1CC[C@H](N2Cc3cc(N4CCN(CC5CCN(c6ccc([C@@H]7c8ccc(O)cc8CC[C@@H]7c7ccccc7)cc6)CC5)CC4)ccc3C2=O)C(=O)N1	–	–	male Sprague-Dawley rat, plasma	oral, 20 mg/kg, fed	AUC(0-inf)	9790 ng·h/mL
Nc1ncnc2occ(-c3ccc(NC(=O)Nc4cc(C(F)(F)F)ccc4F)cc3)c12	Mitotic checkpoint serine/threonine-protein kinase BUB1 (BUB1, Homo sapiens, UniProt O43683)	cell-free assay, inhibitor	–	20 µM	remaining signal	78%
O=C(O)CC(O)(CC(=O)OCc1ccc(OC2OC(CO)C(O)C(O)C2O)cc1)C(=O)OCc1ccc(OC2OC(CO)C(O)C(O)C2O)cc1 (centres unmarked)	CTSL	enzyme activity, inhibitor	–	100 µM	remaining activity	85.6%
O=c1nc(N2CCN(CC3CCCCC3)CC2)sc2c([N+](=O)[O-])cc(C(F)(F)F)cc12	–	–	CD-1 mouse, plasma	oral, 100 mg/kg, 2 h	concentration	3000 ng/mL
CC[C@H](C)[C@H](NC(=O)[C@H](CCC(N)=O)NC(=O)[C@H](CC(C)C)NC(=O)[C@H](CCSC)NC(=O)[C@H](CCCCN)NC(=O)[C@H](CO)NC(=O)[C@H](CO)NC(=O)[C@H](CCSC)NC(=O)[C@H](CC(C)C)NC(=O)[C@H](CC(N)=O)NC(=O)[C@@H](NC(=O)[C@@H](NC(=O)[C@H](CO)NC(=O)[C@H](CC(C)C)NC(=O)[C@H](CS)NC(=O)[C@H](CCCNC(=N)N)NC(=O)[C@H](CC(=O)O)NC(=O)[C@H](Cc1c[nH]c2ccccc12)NC(=O)[C@H](Cc1ccccc1)NC(=O)[C@H](C)NC(=O)[C@H](CCC(=O)O)NC(=O)[C@@H](N)CCCCN)C(C)C)[C@@H](C)CC)C(=O)N[C@@H](CC(N)=O)C(=O)N[C@@H](C)C(=O)O	Glycogen synthase kinase-3 beta (GSK3B, Homo sapiens, UniProt P49841)	enzyme activity, inhibitor, radiometric	–	500 µM	inhibition	-24%
Cc1cc([C@@H](C)Nc2ccccc2C(=O)O)c2nc(N3CCC(F)(F)CC3)c(C#N)c(=O)n2c1	KIT D816V	binding, competition with immobilised ligand	–	1 µM	remaining binding	100%
COc1ccc2[nH]c3ccccc3c2c1	CTSL	enzyme activity, inhibitor	–	100 µM	remaining activity	108%
Cc1[nH]c(C)c(S(=O)(=O)Nc2ccc(C(F)(F)F)c(Cl)c2)c1C(=O)NCC(F)F	DRD3	β-arrestin recruitment, agonist	–	90 min	Emax	94%
CC(=C/C=C/C=C(C)/C=C/C=C(\C)C(=O)OC1OC(COC2OC(CO)C(O)C(O)C2O)C(O)C(O)C1O)/C=C/C=C(/C)C(=O)OC1OC(COC2OC(CO)C(O)C(O)C2O)C(O)C(O)C1O (centres unmarked)	CTSL	enzyme activity, inhibitor	–	100 µM	remaining activity	54.1%
C=CC(=O)N1CCC(COCC(=O)N2CCN(c3nc(-c4cnc(N)nc4C(F)F)nc(N4CCOC[C@@H]4C)n3)CC2)CC1	Atypical kinase COQ8A, mitochondrial (COQ8A, Homo sapiens, UniProt Q8NI60)	binding, competition with immobilised ligand	–	1 µM	remaining binding	96%
O=c1c(O)cccc2cc(O)c(O)c(O)c12	CTSL	enzyme activity, inhibitor	–	100 µM	remaining activity	38%
CC[C@H](C)[C@H](NC(=O)[C@H](CCC(N)=O)NC(=O)[C@@H](NC(=O)[C@H](CCSC)NC(=O)[C@H](CCCCN)NC(=O)[C@H](CO)NC(=O)[C@@H](NC(=O)[C@H](CCSC)NC(=O)[C@H](CC(C)C)NC(=O)[C@H](CC(N)=O)NC(=O)[C@@H](NC(=O)[C@@H](NC(=O)[C@H](CO)NC(=O)[C@H](CC(C)C)NC(=O)[C@H](C)NC(=O)[C@H](CCCNC(=N)N)NC(=O)[C@H](CCC(=O)O)NC(=O)[C@H](Cc1ccc(O)cc1)NC(=O)[C@H](Cc1ccccc1)NC(=O)[C@H](C)NC(=O)[C@H](CC(N)=O)NC(=O)[C@@H](N)CCCCN)[C@@H](C)CC)[C@@H](C)CC)[C@@H](C)O)C(C)C)C(=O)N[C@@H](CC(N)=O)C(=O)N[C@H](C(=O)O)C(C)C	Cyclin-dependent kinase 5, with p35 (CDK5, Homo sapiens, UniProt Q00535)	enzyme activity, inhibitor, radiometric	–	10 µM, 20 min	remaining activity	86%
COc1cc(-c2cncc3c2CN(C)Cc2cc(N4CCNCC4)ccc2-3)cc(OC)c1OC	Cyclin-dependent kinase-like 1 (CDKL1, Homo sapiens, UniProt Q00532)	enzyme activity, inhibitor	–	1 µM	remaining activity	108%

Repeated from above:
SMILES	tested on	test	test system	conditions	quantity	value
C1=C/COCc2cc(ccc2OCCN2CCCC2)Nc2nccc(n2)-c2cccc(c2)COC/1	KIT D816V	binding	–	0.1 µM	remaining binding	61%
